Results of several laboratories.
Every numbered part comes from another study and shows a few of its results, in no order. Substitutions count along the parent as printed.

Series 1 — method: RNA Bind-n-Seq; molecule type: RNA; medium: in vitro; concentration: 365 nM; baseline: no-protein control; direction: higher = stronger binding
Target: RNA binding protein fox-1 homolog 2, RRM domain, GST-SBP tag (RBFOX2, Homo sapiens, UniProt O43251-10, residues 100-194)
Setting: natural RNA segment, single round, ends assumed
Target sequence (chain): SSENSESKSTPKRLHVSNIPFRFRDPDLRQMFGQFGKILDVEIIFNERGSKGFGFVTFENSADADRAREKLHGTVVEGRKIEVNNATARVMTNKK
`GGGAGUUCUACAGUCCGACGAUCUCACCCCCUUCUGUGCAUCUUAGGAAUGAAAUGGUUGCUGUGUGCAGGUCAGGUUAAUGGAAGAACGAGUCUGGUGGUAUAGCGUGGUUUGAGAGAUGUCUUUCAGUUUUUGGAAUUCUCGGGUGCCAA`: “RBNS enrichment (R)” 4.05.
`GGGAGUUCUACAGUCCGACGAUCGAGGACCAAAGCAAUUCUUGUUUUAGUUUCUUUGCGAAGCCUGCUCCUCCUUCCCUUCAUAAGGACUUUUUUUGUCUUUCUUUAACGCCCAGGCUUCGUCUUAUUUCUACUGGAAUUCUCGGGUGCCAA` — result for “RBNS enrichment (R)”: 0.379.
`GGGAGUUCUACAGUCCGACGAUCCUCUUACAGGUGGAGAAUGAGUGUUUGAUGGAUAUAGGUAAGCAUAUUUAUUUGACAGCUAUGAGGAACUAAAUUUAGAGGUUUCUCCAAUCUUAUAUGAAUAUUUUUCAUGGAAUUCUCGGGUGCCAA`: “RBNS enrichment (R)” 0.786.
For `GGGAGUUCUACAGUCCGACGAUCAUACUAAAAUCAUUUGUCUAAAAUUUAAGUUGUUUUCAAAUAAAAGUUGAAAUGCAUUCCUGUGUGCUCUGGUUGCACGGCCUCCAGAGCCUGGCGUCCGUGCUCUGUCCUGGAAUUCUCGGGUGCCAA`, “RBNS enrichment (R)” read 0.283.
`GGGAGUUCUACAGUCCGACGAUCGUGUGUACUGCCUGCUGGACUGAAGAGACAUGCCUGUCUUUAUGUGAGAGGCUGGCUUUUGUUUACUAAGUUGUAGCAUUUAGACAUCCCAUGGCAGUCUAACUUAGCCUUGGAAUUCUCGGGUGCCAA`: “RBNS enrichment (R)” 0.698.
For `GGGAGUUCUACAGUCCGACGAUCAGGGUUUUAAGGGACACCAGUGGAGGUGUGGCUGAAUCUUCAUGUAUUGUUUGGCUUUCUGAGGGAUGUUAGUGCCAAACUUGUAUAGGAGUGGGGUGCUGUCUUCCACUUGGAAUUCUCGGGUGCCAA`, “RBNS enrichment (R)” read 0.413.
For `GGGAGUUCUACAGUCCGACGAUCUUCAUGCCCCAAGCCUCAGCUAUUGGAAUGGCUUCCAUUCAGUAGCUUCUGUGUUGGUCCUUUGUAGAGAUGGAAGUGGAGCCAUCCUGCUGUGAACAGUUAUGAACCAGUGGAAUUCUCGGGUGCCAA`, “RBNS enrichment (R)” read 0.244.
`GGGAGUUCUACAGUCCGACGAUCCUGGUGAAGGCCCUGGAGUAGCGGGCCAGCCGCCAAGGUUGACCUCAGCUUCGGAGCCACCUCUGGAUGAACUGCCCCCAGCCCCCGCCCCAUUAAAGACCCGGAAGCCUUGGAAUUCUCGGGUGCCAA` — result for “RBNS enrichment (R)”: 0.315.
`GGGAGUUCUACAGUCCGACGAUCAAGAGUGACCAGUGCUGGCCCGACGGAUCGCUGAGAUAUUCUCCCAUAAUGGCAAAAAAUAGGCAGUUUGAUGUGACCUGUUUAGUGUGGCUCUCCUCUUUUGAGCAUGUUGGAAUUCUCGGGUGCCAA`: “RBNS enrichment (R)” 14.5.
`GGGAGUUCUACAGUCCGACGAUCAUGACAAACUGAGGUCAGGGGUAGCUGCAGUGUGGGGCUGUCAGAAGAUGAAUACAGCAUCCCGCAGAGGUAGGAUAUGAGGAGGCUAUACUGGAGCGUAGGGAUGAGAUUGGAAUUCUCGGGUGCCAA`: “RBNS enrichment (R)” 2.14.

Series 2 — method: Sort-seq; measured: YFP reporter; medium: E. coli; setting: PhoQ-PhoP variant library; with: 10 µM Mg2+; baseline: high Mg2+ state; direction: higher = stronger signaling
Substance: PhoQ, residues 284 288 289 292 302 303 SLKLQV
PhoP, residues 12 14 15 18 19 QYCSL (Escherichia coli, UniProt P23836) — fold induction: 6.97.
The fold induction was 17.8 (PhoP, residues 12 14 15 18 19 STHWV (Escherichia coli, UniProt P23836)).
The fold induction was 4.67 (PhoP, residues 12 14 15 18 19 SHWTV (Escherichia coli, UniProt P23836)).

Series 3 — method: DHFR PCA, deep sequencing; medium: yeast; with: (+)-ABA 2500 µM; baseline: wild-type fitted maximum; direction: higher = stronger binding
Target: ABI1, truncated, D143A, DHFR fusion (Arabidopsis thaliana)
Setting: methotrexate growth selection, single substitutions
Starting sequence: PYL1, truncated, DHFR fusion (Arabidopsis thaliana); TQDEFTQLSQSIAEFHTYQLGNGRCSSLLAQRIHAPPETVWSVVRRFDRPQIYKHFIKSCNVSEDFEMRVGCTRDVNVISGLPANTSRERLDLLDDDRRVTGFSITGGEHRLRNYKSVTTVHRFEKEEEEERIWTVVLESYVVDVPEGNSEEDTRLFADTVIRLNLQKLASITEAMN; partner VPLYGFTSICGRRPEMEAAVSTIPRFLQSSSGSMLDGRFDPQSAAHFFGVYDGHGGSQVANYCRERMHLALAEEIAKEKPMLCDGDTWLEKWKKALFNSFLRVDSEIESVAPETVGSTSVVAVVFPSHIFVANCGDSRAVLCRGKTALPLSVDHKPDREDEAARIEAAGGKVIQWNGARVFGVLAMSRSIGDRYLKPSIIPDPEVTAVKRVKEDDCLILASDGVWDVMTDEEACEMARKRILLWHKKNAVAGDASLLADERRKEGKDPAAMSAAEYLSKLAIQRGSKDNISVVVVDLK
`Q2H` — result for “relative binding score”: 97.7%.
Under “relative binding score”, `Q10R` is recorded as 95.3%.
`E127I`: “relative binding score” 92%.
Under “relative binding score”, `S11R` is recorded as 94.7%.
Under “relative binding score”, `F124K` is recorded as 93.3%.
`S27T` — result for “relative binding score”: 89.6%.
Under “relative binding score”, `N61G` is recorded as 96%.
`A170T` — result for “relative binding score”: 91.9%.
For `T119K`, “relative binding score” read 81.8%.
`K54A` — result for “relative binding score”: 13.7%.
`D3P` — result for “relative binding score”: 98.9%.
Under “relative binding score”, `R113W` is recorded as 94.1%.

Series 4 — target: CCND3, cyclin fold, Cln2 fusion (human); method: yeast growth competition, sequencing; medium: yeast; setting: weak parent motif; baseline: not given; direction: higher = stronger binding
Starting sequence: WEE1 docking peptide (human); HKTFRKLRLFDTP; partner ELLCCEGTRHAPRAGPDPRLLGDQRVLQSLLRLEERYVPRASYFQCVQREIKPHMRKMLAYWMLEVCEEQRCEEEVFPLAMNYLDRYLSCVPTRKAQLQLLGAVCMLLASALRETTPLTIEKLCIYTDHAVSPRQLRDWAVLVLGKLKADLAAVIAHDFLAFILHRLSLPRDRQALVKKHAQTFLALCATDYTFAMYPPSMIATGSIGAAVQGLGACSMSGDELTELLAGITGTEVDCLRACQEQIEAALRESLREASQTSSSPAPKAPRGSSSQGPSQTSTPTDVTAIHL
`T12S` — result for “normalised enrichment score”: 0.085.
For `D11M`, “normalised enrichment score” read 0.129.
Under “normalised enrichment score”, `R8T` is recorded as 0.158.
Under “normalised enrichment score”, `R5W` is recorded as 0.105.
Under “normalised enrichment score”, `L9D` is recorded as 0.0382.
`T3Q`: “normalised enrichment score” 0.0432.
For `H1Q`, “normalised enrichment score” read 0.0694.
For `T12N`, “normalised enrichment score” read 0.288.
Under “normalised enrichment score”, `T12W` is recorded as 0.217.
Under “normalised enrichment score”, `H1P` is recorded as 0.135.

Excerpt of the above (series 3):
Under “relative binding score”, `S11R` is recorded as 94.7%.
Under “relative binding score”, `F124K` is recorded as 93.3%.
